{"data": "Measurements from different studies", "note": "Each numbered part is a random draw from the data of one study; scales do not carry over between parts."}
{"data": "Sample 1", "target": "RNA binding protein fox-1 homolog 2, RRM domain, GST-SBP tag (RBFOX2, Homo sapiens, UniProt O43251-10, residues 100-194)", "technique": "RNA Bind-n-Seq", "molecule type": "RNA", "sample": "in vitro", "tested at": "365 nM", "notes": "natural RNA segment, single round, ends assumed", "relative to": "no-protein control", "direction": "higher = stronger binding", "shared flanks, not repeated": "GGGAGUUCUACAGUCCGACGAUC … UGGAAUUCUCGGGUGCCAA", "Construct (chain)": "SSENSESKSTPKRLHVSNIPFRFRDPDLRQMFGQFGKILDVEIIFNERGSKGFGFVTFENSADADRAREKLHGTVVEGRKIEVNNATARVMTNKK"}
{"Oligonucleotide": "GUGUCUUCUUGCCUUGAGGAACCUUAAUGGCAUUGUGGCCACCACAUGUGACUCUUCUCCGUGACUCUAUAAAGACCUAGCAGAGCAUGUGAGCAUUCUCAAACAAGAGA", "RBNS enrichment (R)": 0.252}
{"Oligonucleotide": "CUUUUAGACAACUUCCUUUUUGUAGUGGUGAACCUUGCCCUUUAGUACAGUUCAAGUGAAUCUGGAUAAUUGUUCAUCUUUGCUUUAGCUUAGAUACCAUGUAGUGGUCU", "RBNS enrichment (R)": 0.464}
{"Oligonucleotide": "GCCACCAUGCCCGGCCCAUAAGUACCGUUUUUGAGGUUCAGUCUUAAACAUUUGCUUUAAGAAAACAGUCUUGAAUUUCACAUGCUGCUAUUUUUAUAUUUUGCCAUUUU", "RBNS enrichment (R)": 0.687}
{"Oligonucleotide": "UGCUUGCCUGGCCCUGUCCUGGACCCAGCUUUGCUAGGUCUCCUUGGAAACCAGGCCUGGGCCUCAAAAUGGAGAUGGAUCCCAGGUCUUGUGGGACCCUGGGAUGUUUG", "RBNS enrichment (R)": 0.405}
{"Oligonucleotide": "GGCUGAACCUGAGAUCUUGGAACUUGAGAGUAAGAGCAAUAAGAUUGUCCAGAGUGUCAUCCAGACAGCCGUCGACCAGUUUGCACGUACAGAAACAGCCCCCGAAACCC", "RBNS enrichment (R)": 4.54}
{"Oligonucleotide": "AGUAGAGUUGUUGUUUGGGGUACAAGAUGAGAAGAAAGAAAAACCUACAGCCUUUCUACAUUCUGACAUGCUAACAGUGGUUUAAGUUUCUAAAGUGUUUACCAGAUGCU", "RBNS enrichment (R)": 0.648}
{"Oligonucleotide": "AGCAUGCCUUACCCAGCUGGGAAGUCUCUGCCCUGAUCUGGUACUCCUUGUAGUAAGCUGUUUUCUGCUCAGCCACUGGGCUCUUUCACUUUUUUAGUUCUUAAAAAUUU", "RBNS enrichment (R)": 0.699}
{"Oligonucleotide": "AUUAUAUAUAAGGAAAAUAACAAAUCGGUGUUUUUAAGACUAUCACUGUCAUAUAUUAGAUCCUUGUAUUAGUCCAUCCAUUAAUAUUAGUUCUAUUCGUGGUGCUAGGU", "RBNS enrichment (R)": 0.296}
{"data": "Sample 2", "target": "Interferon regulatory factor 7, full length, phosphomimetic (IRF7, Homo sapiens, UniProt Q92985, residues 1-503, S101K/S471D/S472D/S475D/S476D/S477D/S483D/S484D/S487D)", "technique": "protein-binding microarray", "molecule type": "double-stranded DNA, one strand shown", "sample": "in vitro", "tested at": "250 nM", "notes": "60-bp whole probe", "with": "salmon DNA 0.4 mg/ml", "relative to": "random background probes", "direction": "higher = stronger binding", "shared flanks, not repeated": "GCCTAGCAC … GTCTTGATTCGCTTGACGCTGCTG", "Residues (chain)": "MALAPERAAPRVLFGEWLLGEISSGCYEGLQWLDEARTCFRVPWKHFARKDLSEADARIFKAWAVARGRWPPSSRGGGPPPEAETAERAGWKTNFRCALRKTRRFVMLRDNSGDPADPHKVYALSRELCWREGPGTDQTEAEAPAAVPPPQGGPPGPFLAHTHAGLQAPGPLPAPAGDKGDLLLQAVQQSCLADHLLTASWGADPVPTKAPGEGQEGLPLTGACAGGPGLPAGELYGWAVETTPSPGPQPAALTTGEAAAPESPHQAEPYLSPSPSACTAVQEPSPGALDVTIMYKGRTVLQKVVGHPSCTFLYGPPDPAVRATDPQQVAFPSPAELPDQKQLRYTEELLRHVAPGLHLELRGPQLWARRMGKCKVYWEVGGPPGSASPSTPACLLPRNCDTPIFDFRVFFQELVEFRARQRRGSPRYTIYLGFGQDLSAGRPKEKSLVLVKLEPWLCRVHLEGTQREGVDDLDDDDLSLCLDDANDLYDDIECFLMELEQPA"}
{"Oligonucleotide": "TTAGGTATCGGACTTGGTTAGTGCTAG", "log fluorescence": "0.387 z-score"}
{"Oligonucleotide": "TGACCTGCTCCAAACACCTCGTGCTAG", "log fluorescence": "0.121 z-score"}
{"Oligonucleotide": "ACGTCTTCATGTTTTTTTCTGTGCTAG", "log fluorescence": "0.621 z-score"}
{"Oligonucleotide": "TTAGGTATCGACTATAGGTTAGTGCTA", "log fluorescence": "0.00379 z-score"}
{"Oligonucleotide": "GACGGATTGGGTCTCGGGACGTGCTAG", "log fluorescence": "-0.301 z-score"}
{"Oligonucleotide": "CATTTTAGTAGTTTCTAAAAGTGCTAG", "log fluorescence": "2.43 z-score"}
{"Oligonucleotide": "TTAGATATCGGGTATCGTTTAGTGCTA", "log fluorescence": "1.09 z-score"}
{"Oligonucleotide": "TACGGACTGGGACTGGGGACGTGCTAG", "log fluorescence": "-0.378 z-score"}
{"Oligonucleotide": "TTAGGACTAGGTATCGGTTAGTGCTAG", "log fluorescence": "1.35 z-score"}
{"Oligonucleotide": "GACGGACTGAACTTTCGGGACGTGCTA", "log fluorescence": "-0.289 z-score"}
{"Oligonucleotide": "TCACATTTTTTTTTTCAACTGTGCTAG", "log fluorescence": "1.08 z-score"}
{"Oligonucleotide": "TTAGGCCTGCTACTGCTTTAGTGCTAG", "log fluorescence": "-0.619 z-score"}
{"Oligonucleotide": "TCAATTATATCTGTGTTACTGTGCTAG", "log fluorescence": "0.439 z-score"}
{"Oligonucleotide": "TTAGGAGTGGGACTGGGTTAGTGCTAG", "log fluorescence": "-0.493 z-score"}
{"Oligonucleotide": "CAATATTTGCAACATCCCAATGTGCTA", "log fluorescence": "0.24 z-score"}
{"Oligonucleotide": "ATGAAAATCTCAATGGGTTAGTGCTAG", "log fluorescence": "-0.158 z-score"}
{"Oligonucleotide": "TTAAGTTTCGACACTGGGTTAGTGCTA", "log fluorescence": "3.91 z-score"}
{"Oligonucleotide": "GACGATTTCACTTTCGAGACGTGCTAG", "log fluorescence": "1.97 z-score"}
{"Oligonucleotide": "AATATGTTCCCTATATAAGGGTGCTAG", "log fluorescence": "1.82 z-score"}
{"data": "Sample 3", "target": "Sal-like protein 4, full length isoform B (SALL4, Homo sapiens, UniProt Q9UJQ4-2, residues 1-616)", "technique": "universal PBM", "molecule type": "double-stranded DNA, one strand shown", "sample": "in vitro", "tested at": "not given", "notes": "8-mer, flanks averaged, mean of replicates", "direction": "higher = stronger binding"}
{"Oligonucleotide": "AGGGTCAC", "E-score": -0.248}
{"Oligonucleotide": "GGCACTGA", "E-score": -0.104}
{"Oligonucleotide": "CGCTCACG", "E-score": -0.247}
{"Oligonucleotide": "GGGACTTA", "E-score": 0.00905}
{"Oligonucleotide": "ATCTCATC", "E-score": 0.0591}
{"Oligonucleotide": "ATGCACTA", "E-score": 0.114}
{"Oligonucleotide": "AATAATCT", "E-score": 0.367}
{"Oligonucleotide": "AGCCCACA", "E-score": -0.0667}
{"Oligonucleotide": "AAGCACGA", "E-score": 0.0153}
{"Oligonucleotide": "AGATCAGG", "E-score": -0.1}
{"Oligonucleotide": "GAATGAGA", "E-score": -0.0138}
{"Oligonucleotide": "GCAGACGC", "E-score": -0.273}
{"Oligonucleotide": "GTCAAGCA", "E-score": -0.258}
{"Oligonucleotide": "GTCTGCCA", "E-score": -0.172}
{"Oligonucleotide": "AGATTGAG", "E-score": 0.107}
{"Oligonucleotide": "ATCATCTA", "E-score": 0.179}
{"Oligonucleotide": "CCTATCCA", "E-score": -0.0878}
{"Oligonucleotide": "ATACCTTC", "E-score": 0.108}
{"Oligonucleotide": "ACCTGTCT", "E-score": -0.102}
{"Oligonucleotide": "TATCCTGA", "E-score": 0.144}
{"Oligonucleotide": "GCGATGAC", "E-score": -0.165}
{"Oligonucleotide": "CTAATGCC", "E-score": -0.0765}
{"data": "Sample 4", "target": "Phosphate system positive regulatory protein PHO4, full length, GST-tagged (PHO4, Saccharomyces cerevisiae, UniProt P07270, residues 1-312)", "technique": "competition protein-binding microarray", "molecule type": "double-stranded DNA, one strand shown", "sample": "in vitro", "tested at": "2 µM", "notes": "whole 60-bp probe, lowest competitor level", "with": "Cbf1 competitor, 0.05 µM", "direction": "higher = stronger binding", "shared flanks, not repeated": "… GTCTTGATTCGCTTGACGCTGCTG", "Construct (chain)": "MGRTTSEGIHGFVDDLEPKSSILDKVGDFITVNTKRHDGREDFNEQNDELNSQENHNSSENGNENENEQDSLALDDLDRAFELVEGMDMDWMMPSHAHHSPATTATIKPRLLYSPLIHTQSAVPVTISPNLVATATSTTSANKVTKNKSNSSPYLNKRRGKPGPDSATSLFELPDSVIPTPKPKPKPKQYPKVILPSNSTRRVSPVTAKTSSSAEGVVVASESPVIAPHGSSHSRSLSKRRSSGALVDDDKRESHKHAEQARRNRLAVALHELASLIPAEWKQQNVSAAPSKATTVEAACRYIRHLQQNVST"}
{"Oligonucleotide": "CGTCCTAGCGATTGATCGGTGGGTGCCATGAGGAAG", "fluorescence intensity [a.u.]": 6110}
{"Oligonucleotide": "TGCCGTCGATGAGGACACGTTCAGATATGCCAAACA", "fluorescence intensity [a.u.]": 9660}
{"Oligonucleotide": "GTCTTGTCTCATTTTCACGTGACCTTCCCCACTTCA", "fluorescence intensity [a.u.]": 11600}
{"Oligonucleotide": "CATACCCAACCTTGCAGTGTGGGTGAAGATATTTGT", "fluorescence intensity [a.u.]": 5870}
{"Oligonucleotide": "AGATATACACGATCGCACATGGTTCCAAGACGGTTA", "fluorescence intensity [a.u.]": 9890}
{"Oligonucleotide": "CCCAATCTGAGAGAGAACGTGCCGAGGCCGCCTTCA", "fluorescence intensity [a.u.]": 12300}
{"Oligonucleotide": "CTTCTGTAAATTTATCACGTGTTTTGACGCGCCCCG", "fluorescence intensity [a.u.]": 15300}
{"Oligonucleotide": "CGTTTTCAGAAGTGGAATCCTGATCCAATTTGCTCT", "fluorescence intensity [a.u.]": 3460}
{"Oligonucleotide": "CTAACGAAGGTTTGGTGAGTGGGTGACAAGCCAAGT", "fluorescence intensity [a.u.]": 3970}
{"Oligonucleotide": "GCTCATTCCACCTCACACCTGATTAACTAAAAGTTT", "fluorescence intensity [a.u.]": 5600}
{"Oligonucleotide": "TCCCGCTATTTCGACCACGTGGAATCATTTTCGGGT", "fluorescence intensity [a.u.]": 18700}
{"Oligonucleotide": "ATCTGTGGGGGCACCAGCGTGACGGGGACGGTTCTA", "fluorescence intensity [a.u.]": 6940}
{"Oligonucleotide": "CAACAATATACCCAACACGTGGATTTGCCAGCCTGT", "fluorescence intensity [a.u.]": 16800}
{"Oligonucleotide": "TTTGAAAAAACCCATCACGCAGTGGCCGATGTAATT", "fluorescence intensity [a.u.]": 5930}
{"Oligonucleotide": "GGTGGAAAGTGAGTGCGCGTTTCTCGAGCCAAGTGC", "fluorescence intensity [a.u.]": 6130}
{"Oligonucleotide": "AAAGCGGTAATTTGACTCGTGGGTGCAGATATCTAT", "fluorescence intensity [a.u.]": 11000}
{"Oligonucleotide": "ATTTCCCACTTCAACAACGTGCAATAATGGCTCAAT", "fluorescence intensity [a.u.]": 14300}
{"Oligonucleotide": "GTTAAAACTCAATTATGCGTGGGACTTCTCAATTAG", "fluorescence intensity [a.u.]": 8080}
{"Oligonucleotide": "CTTCTGTAAATTTGATTAGTGGGTGGACGCGCCCCG", "fluorescence intensity [a.u.]": 4670}
